# Measurements gathered from unrelated publications.
# Each line is one published result; not all experiments were run side by side.
# Organism: Klebsiella pneumoniae
SMILES,assay,test system,setting,how to read,endpoint,value
CC[C@H](C)[C@H](NC(=O)[C@H](Cc1ccccc1)NC(=O)[C@@H](NC(=O)[C@H](Cc1ccccc1)NC(=O)[C@@H]1CCCN1C(=O)[C@@H](NC(=O)[C@H](C)N)[C@@H](C)CC)[C@@H](C)CC)C(=O)N[C@@H](Cc1c[nH]c2ccccc12)C(=O)N[C@@H](CCCNC(=N)N)C(=O)N[C@@H](CC(C)C)C(=O)N[C@@H](CC(C)C)C(=O)N[C@@H](CCCNC(=N)N)C(=O)N[C@@H](CCCCN)C(=O)NCC(N)=O,,ATCC 700603,"18 h, 37 °C",,MBC,15 µM
C[C@@H](O)[C@H]1C(=O)N2C(C(=O)O)=C(S[C@@H]3CN[C@H](C(=O)N(C)C)C3)[C@H](C)[C@H]12,checkerboard,carbapenem-resistant,"concentration not given, added: anionic gold nanoparticle 8 µg/mL",baseline: MIC alone over combination,MIC fold reduction,4 fold
CC[C@H](C)[C@H](NC(=O)[C@H](Cc1ccc(O)cc1)NC(=O)[C@@H](NC(=O)[C@H](Cc1c[nH]c2ccccc12)NC(=O)[C@@H]1CCCN1C(=O)[C@@H](NC(=O)[C@H](C)N)[C@@H](C)CC)[C@@H](C)CC)C(=O)N[C@@H](Cc1ccc(O)cc1)C(=O)N[C@@H](CCCNC(=N)N)C(=O)N[C@@H](CC(C)C)C(=O)N[C@@H](CC(C)C)C(=O)N[C@@H](CCCNC(=N)N)C(=O)N[C@@H](CCCCN)C(=O)NCC(=O)O,,ATCC 700603,"18 h, 37 °C",,MBC,15 µM
COc1ccc2c(ccc3oc([N+](=O)[O-])cc32)c1,REMA,,,,MIC90,0.125 mg/L
CC[C@H](C)[C@H](NC(=O)[C@H](Cc1ccc(O)cc1)NC(=O)[C@@H](NC(=O)[C@H](Cc1ccc(O)cc1)NC(=O)[C@@H]1CCCN1C(=O)[C@@H](NC(=O)[C@H](C)N)[C@@H](C)CC)[C@@H](C)CC)C(=O)N[C@@H](Cc1c[nH]c2ccccc12)C(=O)N[C@@H](CCCNC(=N)N)C(=O)N[C@@H](CC(C)C)C(=O)N[C@@H](CC(C)C)C(=O)N[C@@H](CCCNC(=N)N)C(=O)N[C@@H](CCCCN)C(=O)NCC(=O)O,,ATCC 700603,"18 h, 37 °C",,MBC,> 15 µM
CC[C@H](C)[C@H](NC(=O)[C@H](CC(C)C)NC(=O)[C@H](CCCNC(=N)N)NC(=O)[C@H](CCCNC(=N)N)NC(=O)[C@H](CCCNC(=N)N)NC(=O)[C@H](CCCNC(=N)N)NC(=O)[C@H](CC(C)C)NC(=O)[C@@H](NC(=O)[C@@H](NC(=O)[C@@H](NC(=O)[C@H](CC(C)C)NC(=O)[C@H](CCCNC(=N)N)NC(=O)[C@H](CO)NC(=O)[C@@H](N)CO)C(C)C)[C@@H](C)CC)[C@@H](C)CC)C(=O)N[C@@H](CO)C(=O)N[C@@H](CCCNC(=N)N)C(=O)N[C@@H](CCCNC(=N)N)C(=O)N[C@@H](CCCNC(=N)N)C(=O)N[C@@H](CCCNC(=N)N)C(N)=O,,,,,MIC range,4 to 8 µM
O=[N+]([O-])c1cc2c(ccc3c4cc([N+](=O)[O-])oc4ccc23)o1,REMA,,,,MIC90,8 mg/L
C[C@H]1[C@H](NC(=O)/C(=N\OC(C)(C)C(=O)O)c2csc(N)n2)C(=O)N1S(=O)(=O)O,,"ATCC BAA-2146, ESBL and NDM-1 producing, ICR mice, systemic lethal infection",100 mg/kg,,survival rate,25%
C[C@@H](O)[C@H]1C(=O)N2C(C(=O)O)=C(S[C@@H]3CN[C@H](C(=O)N(C)C)C3)[C@H](C)[C@H]12,,"NDM-producing, neutropenic BALB/c mouse, thigh infection, thigh","dose not given, 8 h",,"bacterial burden, best",8.3 log10 CFU/thigh
CC[C@H](C)[C@H](NC(=O)[C@H](Cc1c[nH]c2ccccc12)NC(=O)[C@@H](NC(=O)[C@H](Cc1ccc(O)cc1)NC(=O)[C@@H]1CCCN1C(=O)[C@@H](NC(=O)[C@H](C)N)[C@@H](C)CC)[C@@H](C)CC)C(=O)N[C@@H](Cc1ccc(O)cc1)C(=O)N[C@@H](CCCNC(=N)N)C(=O)N[C@@H](CC(C)C)C(=O)N[C@@H](CC(C)C)C(=O)N[C@@H](CCCNC(=N)N)C(=O)N[C@@H](CCCCN)C(=O)NCC(N)=O,,ATCC 700603,"18 h, 37 °C",,MBC,> 15 µM
CC[C@H](C)CCCCC(=O)N[C@@H](CCN)C(=O)N[C@H](C(=O)N[C@@H](CCN)C(=O)N[C@H]1CCNC(=O)[C@H]([C@@H](C)O)NC(=O)[C@H](CCN)NC(=O)[C@H](CCN)NC(=O)[C@H](CC(C)C)NC(=O)[C@@H](CC(C)C)NC(=O)[C@H](CCN)NC1=O)[C@@H](C)O,NPN efflux,ATCC 43816 ΔacrAB,5 to 100 µM except 5 µM,,time to pre-efflux NPN fluorescence,≤ 2 min
COc1ccc2c(ccc3oc([N+](=O)[O-])c(C)c32)c1,REMA,,,,MIC90,> 32 mg/L
NCC[C@H](O)C(=O)N[C@@H]1C[C@H](N)[C@@H](O[C@H]2O[C@H](CN)[C@@H](O)[C@H](O)[C@H]2O)[C@H](O)[C@H]1O[C@H]1O[C@H](CO)[C@@H](O)[C@H](N)[C@H]1O,"growth inhibition, checkerboard",,compound alone,,IC50,31.2 mg/L
N#Cc1ccc2c(ccc3oc([N+](=O)[O-])cc32)c1,REMA,,,,MIC90,0.25 mg/L
CC[C@H](C)[C@H](NC(=O)[C@H](C)NC(=O)[C@H](CCCCN)NC(=O)[C@H](CC(C)C)NC(=O)[C@H](C)NC(=O)[C@@H](NC(=O)[C@H](Cc1c[nH]cn1)NC(=O)[C@H](CC(C)C)NC(=O)[C@@H](NC(=O)[C@@H](NC(=O)[C@H](CCCCN)NC(=O)[C@H](C)NC(=O)[C@H](C)NC(=O)[C@H](CO)NC(=O)[C@H](CCCCN)NC(=O)[C@H](Cc1ccccc1)NC(=O)[C@@H](NC(=O)[C@H](CCCCN)NC(=O)[C@H](CC(C)C)NC(=O)[C@H](Cc1ccccc1)NC(=O)[C@H](CO)NC(=O)[C@H](CCCCN)NC(=O)[C@H](Cc1c[nH]c2ccccc12)NC(=O)[C@H](CCCCN)NC(C)=O)[C@@H](C)O)[C@@H](C)O)C(C)C)[C@@H](C)O)C(=O)N[C@@H](CO)C(=O)N[C@@H](CO)C(N)=O,,,80 strains,,MIC50,4 mg/L
COc1ccc2ccc3oc([N+](=O)[O-])cc3c2c1Br,REMA,,,,MIC90,0.016 mg/L
Cn1c(=O)ccc2ccc(F)c(CCNC[C@H]3CN(c4cnc5c(n4)NC(=O)CO5)C(=O)O3)c21,,,,,MIC50,0.5 mg/L
COc1cc2oc([N+](=O)[O-])cc2c2ccccc12,REMA,,,,MIC90,> 32 mg/L
C[C@@H](O)[C@H]1C(=O)N2C(C(=O)O)=C(S[C@@H]3CN[C@H](CNS(N)(=O)=O)C3)[C@H](C)[C@H]12,checkerboard,carbapenem-resistant,"concentration not given, added: anionic gold nanoparticle 8 µg/mL",baseline: MIC alone over combination,MIC fold reduction,16 fold
CCCCc1c([N+](=O)[O-])oc2ccc3ccccc3c12,REMA,,,,MIC90,1.25 mg/L
C[C@@H](O)[C@H]1C(=O)N2C(C(=O)[O-])=C(SC3Cn4cnc[n+]4C3)[C@H](C)[C@H]12 (stereo partly drawn),checkerboard,carbapenem-resistant,"concentration not given, added: anionic gold nanoparticle 8 µg/mL",baseline: MIC alone over combination,MIC fold reduction,> 4 fold

# Excerpt of the above:
SMILES,assay,test system,setting,how to read,endpoint,value
CC[C@H](C)[C@H](NC(=O)[C@H](Cc1ccc(O)cc1)NC(=O)[C@@H](NC(=O)[C@H](Cc1c[nH]c2ccccc12)NC(=O)[C@@H]1CCCN1C(=O)[C@@H](NC(=O)[C@H](C)N)[C@@H](C)CC)[C@@H](C)CC)C(=O)N[C@@H](Cc1ccc(O)cc1)C(=O)N[C@@H](CCCNC(=N)N)C(=O)N[C@@H](CC(C)C)C(=O)N[C@@H](CC(C)C)C(=O)N[C@@H](CCCNC(=N)N)C(=O)N[C@@H](CCCCN)C(=O)NCC(=O)O,,ATCC 700603,"18 h, 37 °C",,MBC,15 µM
CC[C@H](C)[C@H](NC(=O)[C@H](Cc1ccccc1)NC(=O)[C@@H](NC(=O)[C@H](Cc1ccccc1)NC(=O)[C@@H]1CCCN1C(=O)[C@@H](NC(=O)[C@H](C)N)[C@@H](C)CC)[C@@H](C)CC)C(=O)N[C@@H](Cc1c[nH]c2ccccc12)C(=O)N[C@@H](CCCNC(=N)N)C(=O)N[C@@H](CC(C)C)C(=O)N[C@@H](CC(C)C)C(=O)N[C@@H](CCCNC(=N)N)C(=O)N[C@@H](CCCCN)C(=O)NCC(N)=O,,ATCC 700603,"18 h, 37 °C",,MBC,15 µM
O=[N+]([O-])c1cc2c(ccc3c4cc([N+](=O)[O-])oc4ccc23)o1,REMA,,,,MIC90,8 mg/L
